Experimental data pooled from the literature.
Parts stem from different laboratories: compare values within a part only.

Sample 1
Target: Prothrombin, mature alpha-thrombin (F2, Homo sapiens, UniProt P00734)
Technique: aptamer microarray, sandwich
Molecule type: DNA with 2'F-ANA
Sample: in vitro
Tested at: 200 nM
Notes: whole 15-mer aptamer, many near background
Together with: Cy3 exosite-II aptamer, 400 nM
Direction: higher = stronger binding
Endpoint: mean fluorescence intensity
Sequence: GGTTGGTGTGGTTGG
Modification = 2'F-ANA at 1 2 5 8 9 11 15; value = 121 a.u.
Modification = 2'F-ANA at 3 4 8 11 14 15; value = 325 a.u.
Modification = 2'F-ANA at 1 3 4 5 7 8 9 11 13; value = 50.6 a.u.
Modification = 2'F-ANA at 1 2 4 5 6 7 9 12 13 14 15; value = 65.6 a.u.
Modification = 2'F-ANA at 5 6 8 9 11 12 15; value = 119 a.u.
Modification = 2'F-ANA at 1 2 3 5 6 7 8 9 10 12; value = 107 a.u.

Sample 2
Target: Histone acetyltransferase KAT6A, both winged helices, GST fusion (KAT6A, Homo sapiens, UniProt Q92794, residues 1-181)
Technique: protein binding microarray
Molecule type: double-stranded DNA, one strand shown
Sample: in vitro
Tested at: not given
Notes: 8-mer, flanks averaged, mean of 2 arrays, mostly near background
Baseline: not given
Direction: higher = stronger binding
Endpoint: E-score
Construct (chain): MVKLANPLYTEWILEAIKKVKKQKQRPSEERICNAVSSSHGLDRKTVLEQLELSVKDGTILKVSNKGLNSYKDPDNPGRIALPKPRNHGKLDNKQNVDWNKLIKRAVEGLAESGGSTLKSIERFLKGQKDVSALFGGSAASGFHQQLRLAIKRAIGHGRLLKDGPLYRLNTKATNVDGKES
Sequence = GAAAACGC; value = 0.139
Sequence = AGAAAACA; value = -0.124
Sequence = GATTACAC; value = -0.0149
Sequence = ACGACTCC; value = -0.241

Sample 3
Target: Sal-like protein 4, full length isoform B (SALL4, Homo sapiens, UniProt Q9UJQ4-2, residues 1-616)
Technique: universal PBM
Molecule type: double-stranded DNA, one strand shown
Sample: in vitro
Tested at: not given
Notes: 8-mer, flanks averaged, mean of replicates
Direction: higher = stronger binding
Endpoint: E-score
Construct (chain): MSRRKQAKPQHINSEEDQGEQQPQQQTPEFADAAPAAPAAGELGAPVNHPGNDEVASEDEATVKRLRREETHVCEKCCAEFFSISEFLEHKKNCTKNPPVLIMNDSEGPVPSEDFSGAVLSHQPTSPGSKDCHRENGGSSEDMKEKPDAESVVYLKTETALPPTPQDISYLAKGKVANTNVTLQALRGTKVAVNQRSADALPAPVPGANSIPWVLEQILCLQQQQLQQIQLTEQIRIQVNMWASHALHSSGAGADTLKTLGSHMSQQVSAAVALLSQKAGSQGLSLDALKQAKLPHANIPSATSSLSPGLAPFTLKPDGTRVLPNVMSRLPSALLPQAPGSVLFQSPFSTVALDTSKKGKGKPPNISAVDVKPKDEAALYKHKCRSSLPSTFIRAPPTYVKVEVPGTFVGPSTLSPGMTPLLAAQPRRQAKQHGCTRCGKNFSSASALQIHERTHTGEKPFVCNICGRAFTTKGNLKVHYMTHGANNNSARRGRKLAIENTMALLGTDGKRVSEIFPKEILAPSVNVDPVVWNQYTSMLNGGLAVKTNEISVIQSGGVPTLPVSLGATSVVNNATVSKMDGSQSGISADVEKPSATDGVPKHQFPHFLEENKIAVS
Sequence = GAACCGGA; value = -0.195
Sequence = AGACTGAA; value = -0.00069
Sequence = TGCCGGAA; value = -0.17
Sequence = GGGAGATA; value = 0.131
Sequence = GAGCGTGC; value = -0.175
Sequence = CACGGCAG; value = -0.21

Further values, each from its own experiment
Molecule = PhoQ, residues 284 288 289 292 302 303 GLASVI; target = PhoP, residues 12 14 15 18 19 AGCRL (Escherichia coli, UniProt P23836); assay = Sort-seq, measured: YFP reporter; test system = E. coli; setting = PhoQ-PhoP variant library, together with: 10 µM Mg2+; how to read = baseline: high Mg2+ state, higher = stronger signaling; endpoint = fold induction; value = 3.17
